Assay results pooled from the literature.
Parts stem from different laboratories: compare values within a part only.

Sample 1
Target: RNA binding protein fox-1 homolog 2, RRM domain, GST-SBP tag (RBFOX2, Homo sapiens, UniProt O43251-10, residues 100-194)
Technique: RNA Bind-n-Seq
Form: RNA
Matrix: in vitro
Tested at: 365 nM
Setting: natural RNA segment, single round, ends assumed
Reference: no-protein control
Direction: higher = stronger binding
Shared flanks, not repeated: GGGAGUUCUACAGUCCGACGAUC … UGGAAUUCUCGGGUGCCAA
Construct (chain): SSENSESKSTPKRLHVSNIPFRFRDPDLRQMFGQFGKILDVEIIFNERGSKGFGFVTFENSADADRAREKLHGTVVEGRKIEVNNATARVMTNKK
| Oligonucleotide | RBNS enrichment (R) |
| --- | --- |
| CUUUAUGCCAAAUGUCUUGCAGAUGUUAUUUUUAAACUUAACUGAAUUUUUACAAAUAUAAAAAGGAAAAAGUAUAUUAGUGUAAUUUGUUUAGGAAUAGCUACAUACCG | 1.2 |
| UUGCUUUGAAGUUUUGCUCAAUGUUCCUCCCUUCCGACCACUUCCACUUAAAUAAAGUCUUUAAGUAGCUGAAGGAUUAACAGUCUGGUGGGAGGCAAGCCAUUGAACUG | 0.311 |
| AGAGUUUGUUAUUGAAAUAGAUGUUGCCCAUGAAGAAUUCUCCUUCCUGGAUUGACUCUUAAUCAUCAGGCAUCAUUCCUGGUUUGCUUCUCUACGAAUCUCAAUUCCAA | 0.443 |
| GCCUAGUUUUUGGCUCUUCACAUAUUCCAUAUUGAUUUUGACGCUCUGUAUAUUGGCAUCAGGUGGCAGCUGAAUAUCUUUUGAAUUACUCGAAGGUAAAGCCAGAUGCC | 0.467 |
| AUUCCUUGAGUCAUAGGUAUUAAUAAUAAAAGCCUCAAUGCAGCUUCUCCAUGUAGUUCCUCUCCUACAAGCCAGGUGGAUUCUGGUCCUAACUAAAGAGAUGGGAGUUC | 0.258 |
| UGGCAAGCUGGCCAGCCCUCUUCACUCCAGCGUUCUUCACUGCUCUAUGUCUGCUUACACAGCUUGGACAUGGCUGCUUUCCAUGAAGGAAAUAUAGGGGAGGUGGACUG | 0.265 |
| GAGACACCAGAGGUCUGCUGCAGAGCCCCACCAAGAACCAAGAUGAAGAAAGCCCCUGAGAGAUGCACAUGGAGCCUGGAUCACUUCAUCCUCACACCUGUUCCCUCCAG | 0.902 |
| GCCAAAACAAACUGGUUCCAUGCCUUCCUUGCAGUGAACGUUACAAUGGAUGUGGUUGUCAAUGUGAAUAGCUUAGAGUACUACAAAGGGUAAGCUAACUGAAUGCCUUG | 0.516 |
| GAAGAGGGGAGACCUCUUCUACGACCCCUCCCACUCGGGCCCGAGUAGGGCCUGGGACCCCGAAUGUGAAUAUAACGUAGCAUCUUCGCUGGCUAUGGCCGUGCACUCCC | 1.87 |
| UCGCUGAGAUCUGUAACUUACAGGACACUCAAAGGGCAAUGGUUUUUUUUGGGGGGGGGGUUGUUUUUUUGGUUUUUUUUUUUCUGUAACAUAUUAGGGAAAAAAUGCAG | 1.24 |
| AAUGCAUGAAAAACAAAGGCAAAAACUAGUGGGAAAUGUGUAGAACUGUUAACUGAGAUGGCUUCGAGUCUUCCUUCUGGAAUCUGUUAAAUUUCACAAAGUCAUGAGGG | 3.15 |
| ACAAAAGUUCUUUGUAAAGAUGCUUAUUUUACAGUUAUCUGACACAGCAGCUUGUUACCAACAUUUUAAACCAAAUACUAAAAAGGUUUUUAAAGUCCUAGUAGAAAAAG | 0.341 |

Sample 2
Target: Histone acetyltransferase KAT6A, both winged helices, GST fusion (KAT6A, Homo sapiens, UniProt Q92794, residues 1-181)
Technique: protein binding microarray
Form: double-stranded DNA, one strand shown
Matrix: in vitro
Tested at: not given
Setting: 8-mer, flanks averaged, mean of 2 arrays, mostly near background
Reference: not given
Direction: higher = stronger binding
Residues (chain): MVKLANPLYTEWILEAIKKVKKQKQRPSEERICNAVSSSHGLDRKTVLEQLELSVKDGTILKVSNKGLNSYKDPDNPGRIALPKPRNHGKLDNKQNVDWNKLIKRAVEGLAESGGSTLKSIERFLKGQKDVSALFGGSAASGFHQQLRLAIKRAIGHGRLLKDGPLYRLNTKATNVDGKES
| Oligonucleotide | E-score |
| --- | --- |
| GCGCTACA | 0.239 |
| AAGCTACT | -0.232 |
| TCTCGAAA | 0.0163 |
| ATCTCTAC | -0.123 |
| AGCTCAAC | -0.178 |
| CGGGAGGA | 0.0357 |
| GCTTTGAA | -0.0336 |
| CGCACATA | 0.129 |
| ATTTAGTC | 0.0356 |
| AAAAAGGC | -0.0997 |
| AGGGGGGG | -0.328 |
| AGCTTATA | -0.0275 |
| ATCTTGAA | -0.0316 |
| CACCACAG | -0.105 |
| TGTTCCAA | -0.152 |
| ATTGACGG | 0.281 |
| GCATACGA | -0.102 |
| ATGGCAAT | -0.172 |
| CTAAGTGA | -0.00637 |
| AGACAATG | -0.0489 |
| GTAGTAAA | -0.00237 |
| CAGTTACA | -0.0176 |
| ATAACTTC | -0.0385 |
| ATGAAGTC | -0.0864 |
| AGACGGAC | 0.145 |

Sample 3
Target: Centromere-binding protein 1, full length, N-terminal tag (CBF1, Saccharomyces cerevisiae, UniProt P17106, residues 1-351)
Sequence of UniProt P17106 (whole entry, looked up): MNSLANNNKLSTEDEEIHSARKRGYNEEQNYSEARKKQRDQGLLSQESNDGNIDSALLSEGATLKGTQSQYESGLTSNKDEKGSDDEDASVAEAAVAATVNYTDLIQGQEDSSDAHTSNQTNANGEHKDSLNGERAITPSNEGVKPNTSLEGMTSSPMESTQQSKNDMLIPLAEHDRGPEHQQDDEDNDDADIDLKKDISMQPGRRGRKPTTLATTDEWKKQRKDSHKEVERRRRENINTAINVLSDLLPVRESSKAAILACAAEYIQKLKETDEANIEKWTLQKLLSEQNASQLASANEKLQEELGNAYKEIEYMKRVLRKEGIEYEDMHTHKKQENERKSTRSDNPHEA
Technique: protein-binding microarray
Form: double-stranded DNA, one strand shown
Matrix: in vitro
Tested at: 0.8 µM
Setting: whole 60-bp probe, no competitor
Direction: higher = stronger binding
Shared flanks, not repeated: … GTCTTGATTCGCTTGACGCTGCTG
| Oligonucleotide | fluorescence intensity [a.u.] |
| --- | --- |
| GAAGTTAATAAACCACACGTTGGTTATTTAGATTAG | 535 |
| CTACTACCACAAATGCACGTTTCGCGATTACTGTTC | 608 |
| CCTAACTACTATAACTACCTGATATAGCTTCGTACA | 530 |
| CTAAAAAAAAATACTCCATCAGCGTTAGCGGAATTC | 503 |
| CTACACCAATGTTGCAGCGTGATTTAATTTTGATTC | 952 |
| GAACCTATTATTGGTCATGATGCCACTTTTTACTAG | 707 |
| CTATTCCATATTCCGCACGTCACATTGCCAAATTTC | 887 |
| TGTACGAAGCTATGCCGCGTGATTATAGTAGTTAGG | 919 |
| CTATACGGTAATTGCCTCACCTGTGGTGACTAGTTC | 498 |
| GAACTCCCAAAATATCAGCTGACGTTTTCATATTAG | 1480 |
| CTAATCCAAAATTTTCACACCTGAGATATATTGTTC | 542 |
| GAAATAGTATACAGGTGATTCTTATTTATCCCATAG | 975 |
| CTATACTGTTCTCCTAACGTGTCTGTGTGTTTGTTC | 575 |
| GAAGGAGCAGTGATGACCGTGACAGCTGAAATATAG | 680 |
| GAATAAATCCTGAGGAACGTGACACATAAAGTTTAG | 2530 |
| CCTAACTACTATAGCCTCATGACATAGCTTCGTACA | 558 |
| CTAATACTGTACTATTGCGTGAAAACGAACAGATTC | 579 |
| GAATGTAAACTGTATCACGCATACTTTTTGCTGTAG | 650 |
| TGTACGAAGCTATATCTGATGCTTATAGTAGTTAGG | 524 |
| GAACTCTATTTTTGGGTACACGTGCGTGTTTCTTAG | 5850 |
| CTACCATACTACCATCACCCGAATGTACAGCCATTC | 548 |
| GAAAAAGTGAGTAAGCATGTGATGGTACCTTCATAG | 1100 |
| GAAGACAATTGTTGCCTCGTGGCGGGGCTATTTTAG | 574 |
| CTAGAAATACAAGAACTGATGATGTAACAGAGTTTC | 519 |
| GAAACGTTACGGCGACACGTTATCATCAAACGCTAG | 672 |

Sample 4
Target: Interferon regulatory factor 3, full length, phosphomimetic (IRF3, Homo sapiens, UniProt Q14653, residues 1-427, S386D/S396D/S398D/S402D/T404D/S405D)
Sequence of UniProt Q14653 (whole entry, unmodified, looked up): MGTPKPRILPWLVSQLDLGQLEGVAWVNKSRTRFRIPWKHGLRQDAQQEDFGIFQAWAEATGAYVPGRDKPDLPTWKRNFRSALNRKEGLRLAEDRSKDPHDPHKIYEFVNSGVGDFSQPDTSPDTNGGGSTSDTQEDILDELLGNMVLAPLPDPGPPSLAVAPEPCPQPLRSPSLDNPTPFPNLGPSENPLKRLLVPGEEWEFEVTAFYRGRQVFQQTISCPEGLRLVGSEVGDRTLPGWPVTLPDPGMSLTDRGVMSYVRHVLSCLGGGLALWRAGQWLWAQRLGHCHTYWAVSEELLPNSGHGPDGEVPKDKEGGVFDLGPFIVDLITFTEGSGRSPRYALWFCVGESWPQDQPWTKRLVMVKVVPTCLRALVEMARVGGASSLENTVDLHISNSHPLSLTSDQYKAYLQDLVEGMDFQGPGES
Technique: protein-binding microarray
Form: double-stranded DNA, one strand shown
Matrix: in vitro
Tested at: 2540 nM top
Setting: 60-bp whole probe
Added: salmon DNA 0.4 mg/ml
Reference: random background probes
Direction: higher = stronger binding
Shared flanks, not repeated: GCCTAGCAC … GTCTTGATTCGCTTGACGCTGCTG
| Oligonucleotide | fitted relative affinity |
| --- | --- |
| TTAGGTATCGGTTTCGGTGAGTGCTAG | 7.16 z-score |
| GACGATAACGGGTTTCGAGACGTGCTA | 0.584 z-score |
| TTAGGTTTCGGTATTGGTTAGTGCTAG | 8.04 z-score |
| TCACATATGCTTTTTAGACTGTGCTAG | 0.852 z-score |
| AACGGTATCCTTATCCTGACGTGCTAG | 4.93 z-score |
| TTTTTTTTATCAATCATTTTGTGCTAG | 1.43 z-score |
| GACGGTCTCGGTCTCGGTACGTGCTAG | 1.65 z-score |
| GACGGTCCCCTACTGCTGACGTGCTAG | 0.488 z-score |
| GACCGACTGGACACTGGGGACGTGCTA | -0.299 z-score |
| GACGATTCCAGTGTCGAGACGTGCTAG | 0.484 z-score |
| GACGATATCAGTCTCGATACGTGCTAG | 1.46 z-score |
| GACTGTCTCGGTCTCGGGACGTGCTAG | 1.22 z-score |
| TCATCTTTATGCACTCTTACTGTGCTA | 1.01 z-score |
| TTAGTTTCCAGTTTCGATTAGTGCTAG | 8.19 z-score |
| GAATGATTACATATATGTTGGTGCTAG | 0.41 z-score |
| TTAGGTCTCGGTTTCGTTTAGTGCTAG | 4.26 z-score |
| GACGATTCCAGATTCGAGACGTGCTAG | 1.62 z-score |
| TTTCTAATGTTTTTTAAAGTGTGCTAG | 1.88 z-score |
| GACGATATCGGGTTTCGAGACGTGCTA | 1.21 z-score |
| TTAGGACAGCTTTTCCTTTAGTGCTAG | 0.722 z-score |
| TTAGATTCCGGGTTTCGATTAGTGCTA | 2.37 z-score |
| TTGGAACTGAGTCTCGATTAGTGCTAG | -0.473 z-score |
| TCATGTCTGGGCTTTTTCACTGTGCTA | -0.414 z-score |
| TTCGGACTGGGGACTGGGTTAGTGCTA | -0.847 z-score |
| GACGGCCTCCTTATCCTGACGTGCTAG | -0.0439 z-score |
